Published values of several laboratories.
Protocols differ between the studies behind these lines.
Sample: plasma

| Compound | test system | setting | quantity | result |
| --- | --- | --- | --- | --- |
| COC(=O)C1OC(Oc2c(-c3ccccc3)oc3cc(O)c(O)c(O)c3c2=O)C(O)C(O)C1O (centres unmarked) | BALB/c mouse | oral, 10 mg/kg, single dose | AUC(0-inf) | 44.3 ng·h/mL |
| CCC/C(=C\C1=C(F)C(=O)c2ccccc2C1=O)C(=O)N(CC)CC | mouse | oral, 25 mg/kg | AUC(0-inf) | 22800 ng·h/mL |
| C[C@H]1CN(C(=O)c2cn(-c3ccnc(N)n3)c3cc(C#CC4(O)CCCCC4)ccc23)CCN1 | CD-1 mouse | oral, 10 mg/kg | AUC(0-inf) | 169 ng·h/mL |
| COc1cccc2c1C(=O)c1c(O)c3c(c(O)c1C2=O)C[C@@](O)(C(=O)CO)C[C@@H]3O[C@H]1C[C@H](N)[C@@H](O)[C@H](C)O1 | male Kunming mouse | intravenous, 5 mg/kg | AUC(0-inf) | 19300 ng·h/mL |
| Cc1ccc2oc(-c3c4c(N)n[nH]c(=O)c4nn3-c3ccc(NC(=O)/C=C/CN(C)C)cc3)c(C)c2c1 | mouse | intraperitoneal, 3 mg/kg | AUC(0-inf) | 704 ng·h/mL |
| CN1/C(=C/C=C/c2cc(-c3ccccc3)cc(-c3ccccc3)[o+]2)C(C)(C)c2ccccc21 | male CD-1 mouse | intravenous, 1 mg/kg, single dose | AUC(0-inf) | 27.9 ng·h/mL |
| CN[C@@H]1[C@H](O)[C@H](NC)[C@H]2O[C@]3(O)[C@H](O[C@@H]2[C@H]1O)O[C@H](C)C[C@@]3(O)CNCCc1nccs1 | male BALB/c mouse | intravenous, 10 mg/kg | AUC(0-inf) | 6950 ng·h/mL |
| CCC(=C(c1ccc(Cl)cc1)c1ccc(OCCN2CCOCC2)cc1)c1ccc(OC)cc1 | male C57BL/6 mouse | oral, 400 mg/kg, single dose | AUC(0-inf) | 119000 ng·h/mL |
| [2H]C([2H])(N)C([2H])([2H])NC(=O)c1cc(C2CC2)nc2c1cnn2C(C)C | female BALB/c mouse | intraperitoneal, 50 mg/kg | AUC(0-inf) | 10700 ng·h/mL |
| C[N+]1(CC(=O)OC2CCCCCCCCCCC2)CCCCC1 | mouse | intraperitoneal, 1 mg/kg, single dose | AUC(0-t) | 7 ng·h/mL |
| CCC/C(=C\C1=C(C(F)(F)F)C(=O)c2ccccc2C1=O)C(=O)N(CC)CC | mouse | oral, 25 mg/kg | AUC(0-inf) | < 10 ng·h/mL |
| O=C1OC2(c3ccccc31)c1cc(I)c(O)c(I)c1Oc1c2cc(I)c(O)c1I | female C57BL/6 mouse | oral, 100 mg/kg | AUC(0-inf) | 860 ng·h/mL |
| O=C1C2=C(CCN(Cc3ccccc3)C2)N2CCN=C2N1Cc1ccc(C(F)(F)F)cc1 | female CD-1 mouse | oral, 50 mg/kg | AUC(0-inf) | 6840 ng·h/mL |
| CC(C)(O)Cn1nc(-c2ccccc2)c2c(Cl)c(-c3ccccc3)nnc21 | mouse | intraperitoneal, 3 mg/kg | AUC(0-inf) | 1.76 µM·h |

Excerpt of the above:
| Compound | test system | setting | quantity | result |
| --- | --- | --- | --- | --- |
| O=C1C2=C(CCN(Cc3ccccc3)C2)N2CCN=C2N1Cc1ccc(C(F)(F)F)cc1 | female CD-1 mouse | oral, 50 mg/kg | AUC(0-inf) | 6840 ng·h/mL |
| CC(C)(O)Cn1nc(-c2ccccc2)c2c(Cl)c(-c3ccccc3)nnc21 | mouse | intraperitoneal, 3 mg/kg | AUC(0-inf) | 1.76 µM·h |
